Measured values from different studies.
Each line is one published result; not all experiments were run side by side. Numbers after ± are the reported error.

Compound | assay | test system | conditions | half-life [h]
Cc1ccc(NC(=O)c2ccc(CN3CCN(C)CC3)cc2)cc1Nc1nccc(-c2cncc(-c3oncc3C)c2)n1 |  | healthy volunteers, plasma | oral, 25.0 mg once daily, day 1, 7-day dosing, mean | 15.3
COc1cc(OC)c(/C=C/S(=O)(=O)Cc2ccc(OC)c(NCC(=O)O)c2)c(OC)c1 |  | cancer patients, phase I, plasma | oral, 700 mg twice daily, day 21 cycle 1 | 1.99 ± 0.47
CC(C)(c1ccc(O)cc1)c1ccc(O)cc1 | GC-MS | exposure tank water | 5000 ng/L, 20 °C | 3.75
C[C@@H]1CCO[C@H]2Cn3cc(C(=O)NCc4ccc(F)cc4F)c(=O)c(O)c3C(=O)N12 | mean | HIV-1 infected treatment-experienced adolescents, plasma | oral, about 1 mg/kg once daily, steady state | 12.7
Cc1ccc(N(C)C(=O)[C@H](Cc2ccccc2)NC(=O)CNC(=O)c2ccccc2)cc1 |  | human liver microsomes | 1 µM, pH 7.4, added: cobicistat 0.5 µM | 0.7
N[C@@H](Cc1ccccc1)C(=O)NCC(=O)OC[C@H]1O[C@@H](n2cc(F)c(=O)[nH]c2=O)C[C@@H]1O |  | human pancreas homogenate | pH 7.4, 37 °C, protein 500 µg/mL | 2.38 ± 0.358
CS(=O)(=O)n1cc2c(n1)CN([C@H]1CO[C@H](c3cc(F)ccc3F)[C@@H](N)C1)C2 |  | healthy Japanese men, plasma | oral, 50 mg once weekly, day 15 | 73.7
CCOc1ccc(Cc2cc([C@@H]3S[C@H](CO)[C@@H](O)[C@H](O)[C@H]3O)c(OC)cc2C)cc1 |  | Japanese type 2 diabetes patients, plasma | oral, 5 mg single dose, eGFR below 30 mL/min/1.73 m^2 | 13.1 ± 3.62
NC(=O)c1cnc2[nH]ccc2c1N[C@@H]1[C@@H]2CC3C[C@H]1C[C@@](O)(C3)C2 |  | healthy Japanese men, plasma | oral, 200 mg, single dose fasted | 7.5
O=C(O)C[C@H](O)C[C@H](O)/C=C/c1c(C2CC2)nc2ccccc2c1-c1ccc(F)cc1 |  | healthy Chinese male volunteers, plasma | oral, 2 mg once daily, multiple dose | 13.8
CC(C)[C@@H](N)C(=O)OC[C@H]1O[C@@H](n2cc(F)c(=O)[nH]c2=O)C[C@@H]1O |  | human small intestine homogenate | pH 7.4, 37 °C, protein 1000 µg/mL | 2.91 ± 1.07
Cn1cnnc1SCC(=O)C12CC3CC(CC(C3)C1)C2 | metabolic stability | human liver microsomes |  | > 1

Repeated from above:
Compound | assay | test system | conditions | half-life [h]
O=C(O)C[C@H](O)C[C@H](O)/C=C/c1c(C2CC2)nc2ccccc2c1-c1ccc(F)cc1 |  | healthy Chinese male volunteers, plasma | oral, 2 mg once daily, multiple dose | 13.8
CS(=O)(=O)n1cc2c(n1)CN([C@H]1CO[C@H](c3cc(F)ccc3F)[C@@H](N)C1)C2 |  | healthy Japanese men, plasma | oral, 50 mg once weekly, day 15 | 73.7
